Measured values gathered from unrelated publications.
Each numbered part is a random draw from the data of one study; scales do not carry over between parts.

Series 1 — technique: RNA Bind-n-Seq; form: RNA; medium: in vitro; concentration: 365 nM; relative to: no-protein control; direction: higher = stronger binding
Target: RNA binding protein fox-1 homolog 2, RRM domain, GST-SBP tag (RBFOX2, Homo sapiens, UniProt O43251-10, residues 100-194)
Setting: natural RNA segment, single round, ends assumed
Residues (chain): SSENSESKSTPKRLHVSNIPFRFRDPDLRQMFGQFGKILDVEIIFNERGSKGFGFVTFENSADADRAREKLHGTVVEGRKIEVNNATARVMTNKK
Sequence | RBNS enrichment (R)
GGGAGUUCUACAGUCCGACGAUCCCCUCGGACCACAGUGGCUCUGUAUGGCCAGGAACUGGGACUCGAGCUUUCAGAUUCUCAACUAGCCUUGGCAAAACAGCUGUAGGUGGCCUCCCUGACAACAGACACUCUGGAAUUCUCGGGUGCCAA | 0.295
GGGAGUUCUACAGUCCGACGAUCCUGCCUAAGUGGCUGCUGACUGAUGUUGAGGGAACAGACAGGAGAAAUGCAUCCAUUCCUCAGGGACAGAGACACCUGCACCUCCCCCCACUGCAGGCCCCGCUUGUCCAUGGAAUUCUCGGGUGCCAA | 0.928
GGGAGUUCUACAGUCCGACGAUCCUGCAUAAUUCUGAAGUUAUAUUUCCUAUACCAUUUCCGUAAUUCUUAUUCCAUAUUAGAAAACUUUGUUAGGCCAAAGACAAAUAGUAGGCAAGAUGGCACAGGGCAUGUGGAAUUCUCGGGUGCCAA | 0.7
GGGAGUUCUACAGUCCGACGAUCCUGCUCACAUCUGCCUGCAAGUCUUUCCAGUACUCCUGGGAUAUCCUGUAAUAGACUCGGGUCCUGUCCACGGCCCUGGCCGCCCACAAUCCAGCCCACAAAUCCACAUGUGGAAUUCUCGGGUGCCAA | 0.297
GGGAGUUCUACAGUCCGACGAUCCAGAAGAUCUUAUCUUGCCAGGCCGUGGAGAGCUACAAGAAAGAUUCCUGAGAAAUGUCCAACUGCUAGGAGUCUGACCAAAUUACAGAUGUGUGCCAUACUCUGGUUCUUGGAAUUCUCGGGUGCCAA | 0.508
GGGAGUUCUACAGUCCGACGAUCAUUAGCUGUUGACCAUUUGAUGCUGUUGUCUGUCUGGCAGGGACUGAAUGACCUGAUGUCAGAUUUAGAUUCUUCCUGGGGAUUACACAGCUAUGAAUGUAUUUGCUUCUUGGAAUUCUCGGGUGCCAA | 0.741
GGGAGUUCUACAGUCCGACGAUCUCAGUAUAUUAAAUCUGUUUAUUAUGUACACUGUAUGUUUACUCUCAAUAGUACAUGAGAACGUAUUGGCUUACCUUAUACAAUAAAUUAGUCCUUUUGUUUACUCAGUUUGGAAUUCUCGGGUGCCAA | 0.428
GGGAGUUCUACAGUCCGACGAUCGCAAGAAAUGUGGAAAUCUGUCUGCUUGUUUACAUGGCCCGACAACACCACCUAGGCGCACGCGAGCAGAAGCCCUCUCUGUAUUACCGCUCCCUACGCAACAUACUUGAUGGAAUUCUCGGGUGCCAA | 0.765

Series 2 — organism: SARS-CoV-2; effect on: cytopathic effect; cell line: Vero E6; concentration: 10 µM
SMILES | inhibition
CCOc1cc(C(Nc2cc(C)ccn2)c2ccc3cccnc3c2O)ccc1OC (stereo not shown) | -9.6%
Cc1ccc(C)c(-n2sc3cc(F)ccc3c2=O)c1 | 3.6%
CN1C(=O)C(N2CCCCC2)S/C1=C\C(=O)O (stereo not shown) | 13.4%

Series 3 — mode: inhibitor; concentration: 20 µM
Target: Replicase polyprotein 1ab, nsp13 helicase (rep, Severe acute respiratory syndrome coronavirus 2, UniProt P0DTD1)
SMILES | inhibition
O=P(O)(O)C(Cl)(Cl)P(=O)(O)O | 4.1%
C[C@H](NC(=O)C(C)(C)Oc1ccc(C(F)(F)F)cn1)[C@@H](Cc1ccc(Cl)cc1)c1cccc(C#N)c1 | -4.2%
C=C1/C(=C\C=C2/CCC[C@]3(C)[C@@H]([C@H](C)/C=C/C=C/C(O)(CC)CC)CC[C@@H]23)C[C@@H](O)C[C@@H]1O | 18.1%
C#CCN1C(C)=C(C(=O)OC)C(c2cccc([N+](=O)[O-])c2)C(C(=O)OCC)=C1C (stereo not shown) | -0.47%
c1cc(-c2sc(-c3ccncc3)c(-c3ccncc3)c2-c2ccncc2)ccn1 | 4.08%
N[C@@H](CC(=O)N1CCn2c(nnc2C(F)(F)F)C1)Cc1cc(F)c(F)cc1F | -0.06%
O=C(CCc1ccc(O)cc1)c1c(O)cc(O)cc1O[C@@H]1O[C@H](CO)[C@@H](O)[C@H](O)[C@H]1O | -0.82%
NC(=O)NCCC[C@H](N)C(=O)O | 3.05%
CCOP(=S)(OCC)Oc1nc(Cl)c(Cl)cc1Cl | 3.43%
CCOC(=O)NNc1ccc(N(CC)CC(C)O)nn1 (stereo not shown) | 8.38%
COC(=O)N[C@H](C(=O)N1CC2(CC2)C[C@H]1c1nc(-c2ccc3c(c2)C(F)(F)c2cc(-c4ccc5[nH]c([C@@H]6[C@H]7CC[C@H](C7)N6C(=O)[C@@H](NC(=O)OC)C(C)C)nc5c4)ccc2-3)c[nH]1)C(C)C | -1.57%
Nc1ccc2ncnc(NCCc3ccc(Oc4ccccc4)cc3)c2c1 | 7.51%
C[Se]CC[C@H](N)C(=O)O | 3.98%
CC(C)C(=O)OC[C@H]1O[C@@H](n2ccc(N)nc2=O)[C@](C)(F)[C@@H]1OC(=O)C(C)C | -2.07%
O=C(NC1CCNCC1)c1n[nH]cc1NC(=O)c1c(Cl)cccc1Cl | 7.36%
O=c1cc(-c2ccc(O)cc2)oc2cc(O)cc(O)c12 | 57%
CC(Oc1c(Cl)cccc1Cl)C1=NCCN1 (stereo not shown) | 7.73%
O=C(O)C(Cc1ccccc1[N+](=O)[O-])=NNc1nc(-c2ccc(Cl)c(Cl)c2)cs1 (mixture of isomers) | -3.6%
COc1c(C)c2c(c(O)c1C/C=C(\C)CCC(=O)OCCN1CCOCC1)C(=O)OC2 | 0.44%
CC[C@H]1OC(=O)[C@H](C)C(=O)[C@H](C)[C@@H](O[C@@H]2O[C@H](C)C[C@H](N(C)C)[C@H]2O)[C@](C)(OC)C[C@@H](C)C(=O)[C@H](C)[C@H]2N(CCCCn3cnc(-c4cccnc4)c3)C(=O)O[C@]12C | 9.65%
O=c1ccn([C@@H]2O[C@H](COP(=O)(O)OP(=O)(O)OP(=O)(O)O)[C@@H](O)[C@H]2O)c(=O)[nH]1 | 5.85%
COCc1c[n+]([O-])c(C)cn1 | 6.3%
CC(C)(Sc1cc(C(C)(C)C)c(O)c(C(C)(C)C)c1)Sc1cc(C(C)(C)C)c(O)c(C(C)(C)C)c1 | 4.06%
O=[N+]([O-])c1c(Nc2cc(F)cc(Cl)c2)ccc2nonc12 | 1.76%
O=C1[C@H](Cc2ccc(O)cc2)N2C(=O)CCN(C(=O)NCc3ccccc3)[C@H]2CN1Cc1cccc2ccccc12 | 9.12%

Series 4 — technique: protein binding microarray; form: double-stranded DNA, one strand shown; medium: in vitro; concentration: not given; relative to: not given; direction: higher = stronger binding
Target: Histone acetyltransferase KAT6A, winged helix 2, GST fusion (KAT6A, Homo sapiens, UniProt Q92794, residues 85-181)
Setting: 8-mer, flanks averaged, mean of 2 arrays, mostly near background
Target sequence (chain): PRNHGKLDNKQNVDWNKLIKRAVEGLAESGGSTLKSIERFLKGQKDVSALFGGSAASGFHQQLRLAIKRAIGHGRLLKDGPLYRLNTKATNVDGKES
Sequence | E-score
CACGTGAC | -0.337
AGAAGCTG | -0.00445
TCCTAACA | -0.0122
ACGTAGCC | -0.261
GCAATTAC | -0.0994
ATATCTGA | -0.0263
AGCGATAA | 0.00357
AAAGTCGA | -0.063

Series 5 — technique: protein-binding microarray; form: double-stranded DNA, one strand shown; medium: in vitro; concentration: 2200 nM top; setting: 60-bp whole probe; added: salmon DNA 0.4 mg/ml; relative to: random background probes; direction: higher = stronger binding; shared flanks, not repeated: GCCTAGCAC … GTCTTGATTCGCTTGACGCTGCTG
Target: Interferon regulatory factor 7, full length, phosphomimetic (IRF7, Homo sapiens, UniProt Q92985, residues 1-503, S471D/S472D/S475D/S476D/S477D/S483D/S484D/S487D)
Construct (chain): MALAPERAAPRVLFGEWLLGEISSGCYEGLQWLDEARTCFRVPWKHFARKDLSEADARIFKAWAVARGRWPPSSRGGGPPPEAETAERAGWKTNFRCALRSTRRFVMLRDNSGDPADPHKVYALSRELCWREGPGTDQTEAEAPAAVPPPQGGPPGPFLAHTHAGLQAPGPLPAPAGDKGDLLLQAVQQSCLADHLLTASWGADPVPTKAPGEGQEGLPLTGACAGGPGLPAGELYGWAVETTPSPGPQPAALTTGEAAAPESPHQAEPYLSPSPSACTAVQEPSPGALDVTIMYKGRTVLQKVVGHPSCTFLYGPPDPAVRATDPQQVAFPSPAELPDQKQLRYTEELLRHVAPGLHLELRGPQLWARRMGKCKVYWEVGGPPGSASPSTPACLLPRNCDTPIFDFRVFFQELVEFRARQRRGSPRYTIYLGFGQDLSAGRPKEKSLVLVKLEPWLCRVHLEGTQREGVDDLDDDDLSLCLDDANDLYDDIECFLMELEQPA
Sequence | fitted relative affinity
TTAGGTTTCGAATTTCGGTTAGTGCTA | 5.96 z-score
TTACGTTTCGGGTATCGGTTAGTGCTA | 6.72 z-score
TTAGATCTCAGTATCGATTCGTGCTAG | 1.11 z-score
TTAGAACTCGGGTATCGATTAGTGCTA | 0.414 z-score
GATGGTTTCGGACTGGGGACGTGCTAG | 3.67 z-score
TTAGGTTTCCTTTCCATTTAGTGCTAG | 4.44 z-score
GTCGGTTTCGGTATCGGGACGTGCTAG | 9.18 z-score
GACTTTTTAGATTTTTTTTCGTGCTAG | 1.17 z-score

Repeated from above (series 5):
Sequence | fitted relative affinity
GATGGTTTCGGACTGGGGACGTGCTAG | 3.67 z-score
TTAGGTTTCGAATTTCGGTTAGTGCTA | 5.96 z-score
TTACGTTTCGGGTATCGGTTAGTGCTA | 6.72 z-score
TTAGGTTTCCTTTCCATTTAGTGCTAG | 4.44 z-score
